Measured values collected from several papers.
Compare with care: the assays were run in different laboratories.

CCOC(=O)c1nc2cc(Cl)c(Cl)cc2nc1N1CCN(C(=O)Nc2ccc(N3CCNCC3)cc2)CC1 — half-life (male mouse, plasma; oral, 10 mg/kg): 5.29 h
CCS(=O)(=O)c1ccccc1C(=O)N1CCN(c2nc3ccc(F)cc3s2)C[C@@H]1C — half-life (mouse, plasma; oral, 3 mg/kg): 1.73 h
CC[C@H](C)[C@H](NC(=O)[C@H](Cc1ccccc1)NC(=O)[C@H](CCC(=O)O)NC(=O)[C@H](CCCCN)NC(=O)[C@H](C)NC(=O)[C@H](C)NC(=O)[C@H](CCC(N)=O)NC(=O)CNC(=O)[C@H](CCC(=O)O)NC(=O)[C@H](CC(C)C)NC(=O)[C@H](Cc1ccc(O)cc1)NC(=O)[C@H](CO)NC(=O)[C@H](CO)NC(=O)[C@@H](NC(=O)[C@H](CC(=O)O)NC(=O)[C@H](CO)NC(=O)[C@@H](NC(=O)[C@H](Cc1ccccc1)NC(=O)[C@@H](NC(=O)CNC(=O)[C@H](CCC(=O)O)NC(=O)[C@H](C)NC(=O)[C@@H](N)Cc1c[nH]cn1)[C@@H](C)O)[C@@H](C)O)C(C)C)C(=O)N[C@@H](C)C(=O)N[C@@H](Cc1c[nH]c2ccccc12)C(=O)N[C@@H](CC(C)C)C(=O)N[C@H](C(=O)N[C@@H](CCCNC(=N)N)C(=O)NCC(=O)N[C@@H](CCCNC(=N)N)C(=O)NCC(=O)O)C(C)C — half-life (male CD-1 mouse, plasma; intravenous, 1 mg/kg, single dose): 0.08 h
C[N+]1(CC(=O)OC2CCCCCCCCCCC2)CCCCC1 — half-life (mouse, plasma; intraperitoneal, 5 mg/kg, single dose): 4.6 h
NS(=O)(=O)NCC(F)(F)c1ccccc1F — half-life (mouse, plasma; oral, 5 mg/kg): 4.5 h
CCC(=C(c1ccc(Cl)cc1)c1ccc(OCCN2CCOCC2)cc1)c1ccc(OC)cc1 — half-life (male C57BL/6 mouse, plasma; oral, 400 mg/kg, single dose): 8.5 h
O=C1CCc2ccc(NS(=O)(=O)c3cccc(Oc4ccccc4)c3)cc2N1 — half-life (C57BL/6 mouse, plasma; subcutaneous, 3 mg/kg): 2.3 h
COc1cc(OC)c(F)c(/C=C/c2cnc3ccn(S(=O)(=O)c4cn(CCF)cn4)c3n2)c1F — half-life (CD-1 mouse, plasma; oral, 10 mg/kg): 1.9 h
Brc1ccccc1-c1nnc(CSc2nnnn2-c2ccccc2)o1 — half-life (male C57BL/6 mouse, plasma; intraperitoneal, 10 mg/kg): 0.49 h
Cc1ccc2oc(-c3c4c(N)n[nH]c(=O)c4nn3-c3ccc(NC(=O)/C=C/CN(C)C)cc3)c(C)c2c1 — half-life (mouse, plasma; intraperitoneal, 3 mg/kg): 3.7 h
C=CCC1C(=O)C=C(OC)C2(OC)C(C)C(c3ccc4c(c3)OCO4)OC12 (single isomer, unassigned; (-)) — half-life (male C57BL/6 mouse, blood; intravenous, 5 mg/kg): 0.62 h
COC(=O)N[C@H]1CC[C@@H](Nc2cc(NCc3ccccc3F)n3ncc(C(C)C)c3n2)CC1 — half-life (female BALB/c mouse, plasma; oral, 10 mg/kg): 2.75 h
CC(C)(C)OC(=O)N[C@H](Cc1ccccc1)[C@@H](O)CN1CCC(N2CCCCC2)CC1 — half-life (Swiss mouse, plasma; subcutaneous, 20 mg/kg, single dose): < 4 h
COC(=O)c1ccc2c(c1)NC(=O)/C2=C(\Nc1ccc2c(c1)CCN2C(=O)CN1CCOCC1)c1ccccc1 — half-life (CD-1 mouse, plasma; oral, 50 mg/kg): 4.29 h
CCC(CC)CNC(=N)NC(=N)NCCCCCCNC(=N)NC(=N)NCC(CC)CC — half-life (female BALB/c mouse, plasma; intraperitoneal, 5 mg/kg, single dose): 17 h
C=CC(=O)Nc1cccc(Cn2ncc3cnc(Nc4cnn(CCOC)c4)nc32)c1 — half-life (male BALB/c mouse, plasma; oral, 30 mg/kg): 1.22 h
COC(=O)C1OC(Oc2c(-c3ccccc3)oc3cc(O)c(O)c(O)c3c2=O)C(O)C(O)C1O (stereo not drawn) — half-life (BALB/c mouse, plasma; oral, 10 mg/kg, single dose): 2.1 h
COc1cc2c(cc1OC)CC(=O)N(C[C@H]1CCCN(CCOc3ccc(F)cc3)C1)CC2 — half-life (female C57BL/6 mouse, plasma; intraperitoneal, 20 mg/kg): 0.75 h
CN(C)CCNC(=O)/C=C/[C@H](Cc1ccccc1)Nc1ccnc2cc(Cl)ccc12 — half-life (CD-1 mouse, plasma; oral, 5 mg/kg, single dose): 1.46 h
O=C(c1ccccc1)N1C(c2ccc(OCC3CCN(CCCF)C3)cc2)c2ccc(O)cc2CC12CC2 (stereo not drawn) — half-life (C57BL/6 mouse, serum; intraperitoneal, 25 mg/kg): 3.6 h
N#Cc1cnc2cc(OCC3CCNCC3)c(F)cc2c1Nc1cc(F)c(OCc2cccc(Cl)n2)cc1Cl — half-life (female CD-1 mouse, plasma; oral, 20 mg/kg): 10.3 h
O=C(NCCCCc1ccccc1)n1c(=O)oc2cc(-c3ccc(F)cc3)ccc21 — half-life (CD-1 mouse, plasma; intraperitoneal, 10 mg/kg): 7.63 h
COc1cccc2c1C(=O)c1c(O)c3c(c(O)c1C2=O)C[C@@](O)(C(=O)CO)C[C@@H]3O[C@H]1C[C@H](N)[C@@H](O)[C@H](C)O1 — half-life (male Kunming mouse, plasma; intravenous, 5 mg/kg): 0.681 h
CCC/C(=C\C1=C(OC)C(=O)c2ccccc2C1=O)C(=O)NOC — half-life (mouse, plasma; oral, 25 mg/kg): 22 h
Nc1ccn(C[C@@H](CO)OCP(=O)(O)OCCCS(=O)(=O)CCCCCCCCCCCCCC2CCC2)c(=O)n1 — half-life (mouse, plasma; intravenous, 3 mg/kg, single dose): 0.7 h
CCCCCCCCCCCCCCCC(=O)N[C@@H](CCC(=O)NCCCC[C@H](NC(=O)[C@H](CC(=O)O)NC(=O)[C@H](CO)NC(=O)[C@@H](NC(=O)[C@H](Cc1ccccc1)NC(=O)[C@@H](NC(=O)CNC(=O)[C@H](CCC(N)=O)NC(=O)[C@H](CO)NC(=O)[C@@H](N)Cc1c[nH]cn1)[C@@H](C)O)[C@@H](C)O)C(=O)N[C@@H](CO)C(=O)N[C@@H](CCC(=O)O)C(=O)N[C@@H](Cc1ccc(O)cc1)C(=O)N[C@@H](CC(C)C)C(=O)N[C@@H](CC(=O)O)C(=O)N[C@@H](CO)C(=O)N[C@@H](CCC(=O)O)C(=O)N[C@@H](CCCNC(=N)N)C(=O)N[C@@H](C)C(=O)N[C@@H](CCCNC(=N)N)C(=O)N[C@@H](CC(=O)O)C(=O)N[C@@H](Cc1ccccc1)C(=O)N[C@H](C(=O)N[C@@H](C)C(=O)N[C@@H](Cc1c[nH]c2ccccc12)C(=O)N[C@@H](CC(C)C)C(=O)N[C@@H](CCC(=O)O)C(=O)N[C@@H](C)C(=O)NCC(=O)NCC(=O)O)C(C)C)C(=O)O — half-life (mouse, plasma; subcutaneous): ~5 h
O=C1OC2(c3ccccc31)c1cc(I)c(O)c(I)c1Oc1c2cc(I)c(O)c1I — half-life (female C57BL/6 mouse, plasma; oral, 100 mg/kg): 3 h
CCOc1c(C(C)(C)O)sc2cnc(Nc3ccc(N4CCC(N5CC6(COC6)C5)CC4)cc3OC)nc12 — half-life (male C57BL/6 mouse, plasma; intravenous, 3 mg/kg): ~11 h
CC(=O)N[C@@H](Cc1ccc(O)cc1)CN(CC(=O)N[C@@H](CCCCN)CN(CC(=O)N[C@@H](Cc1ccccc1)CN(CC(=O)N[C@H]1CCCCNc2c(F)c(F)c(c(F)c2F)S(=O)(=O)c2c(F)c(F)c(c(F)c2F)NCCCC[C@@H](CN(CC(=O)N[C@@H](C)CN(CC(N)=O)S(C)(=O)=O)S(C)(=O)=O)NC(=O)CN(S(=O)(=O)CC(C)C)C[C@H](CC(C)C)NC(=O)CN(S(=O)(=O)CCN)C1)S(=O)(=O)CC(C)C)S(=O)(=O)CCN)S(C)(=O)=O — half-life (C57BL/6 mouse, plasma; intraperitoneal, 50 mg/kg): 6 h
C[C@H]1CN(C(=O)c2cn(-c3ccnc(N)n3)c3cc(C#CC4(O)CCCCC4)ccc23)CCN1 — half-life (CD-1 mouse, plasma; oral, 10 mg/kg): 1.02 h
CC1=C(O)C(=O)C=C2C1=CC=C1[C@@]2(C)CC[C@@]2(C)[C@@H]3C[C@](C)(C(=O)NCCOCCOCCOCCOCC(=O)N[C@H](C(=O)N4C[C@H](O)C[C@H]4C(=O)N[C@@H](C)c4ccc(-c5scnc5C)cc4)C(C)(C)C)CC[C@]3(C)CC[C@]12C — half-life (male C57BL/6 mouse, plasma; intraperitoneal, 20 mg/kg): 8.6 h
COc1cccc(OCCN2CCC[C@H](CN3CCc4cc(OC)c(OC)cc4CC3=O)C2)c1 — half-life (male C57BL/6 mouse, plasma; intraperitoneal, 20 mg/kg): 0.79 h
CN1CCC(N[C@@H]2CCc3[nH]c4c(C(N)=O)ccc(-c5ccccc5Cl)c4c3C2)CC1 — half-life (mouse, plasma; intravenous, 2 mg/kg): 12 h
Cc1cc(C)c(S(=O)(=O)N(CC(=O)O)c2ccc(Nc3ccnc(N4CCCC4)n3)cc2)c(C)c1 — half-life (nude mouse, plasma; intraperitoneal, 100 mg/kg, single dose): 6.06 h
O=C1C2=C(CCN(Cc3ccccc3)C2)N2CCN=C2N1Cc1ccc(C(F)(F)F)cc1 — half-life (female CD-1 mouse, plasma; oral, 50 mg/kg): 2.03 h
CCc1nc(N)nc(N)c1C#C[C@H](C)c1cc(-c2ccncc2)ccc1OC — half-life (mouse, plasma; oral, 16 mg/kg, single dose): 0.19 h
CC1=C(/C=C/C(=O)N2CCN(C(N)=O)CC2)C(C)(C)CCC1 — half-life (male mouse, plasma; oral, 20 mg/kg, single dose): 0.854 h
CCc1nc(N)nc(N)c1C#C[C@H](C)c1cc(-c2cc(C)nc(C)c2)ccc1Cl — half-life (mouse, plasma; oral, 5 mg/kg): 4.55 h
O=c1c2cc(-c3ccc(Cl)cc3)nc(-c3cccnc3)c2ncn1C1CCC(O)CC1 (stereo not drawn) — half-life (BALB/c mouse, plasma; oral, 100 mg/kg, single dose): 29.7 h
Nc1ccn(C[C@@H](CO)OCP(=O)(O)OCCCS(=O)(=O)CCCCCCCCCCCCC2CCC2)c(=O)n1 — half-life (mouse, plasma; intravenous, 3 mg/kg, single dose): 0.4 h
CCC(=O)N(C)c1ccc(Cl)c(Cl)c1 — half-life (female C57BL/6 mouse, plasma; intravenous, 2 mg/kg): 0.493 h
O=C(OCc1cccc(O)c1O)c1ccc(O)c(CO)c1 — half-life (male CD-1 mouse, plasma; intravenous, 10 mg/kg): 0.042 h
